Results gathered from unrelated publications.
A part holds a random share of what one study measured. Positions count from the first letter of the parent shown.

Study 1 — method: protein-binding microarray; form: double-stranded DNA, one strand shown; sample: in vitro; tested at: 2540 nM top; notes: 60-bp whole probe; together with: salmon DNA 0.4 mg/ml; reference: random background probes; direction: higher = stronger binding; all sequences stand within: GCCTAGCAC … GTCTTGATTCGCTTGACGCTGCTG
Target: Interferon regulatory factor 3, full length, phosphomimetic (IRF3, Homo sapiens, UniProt Q14653, residues 1-427, S386D/S396D/S398D/S402D/T404D/S405D)
UniProt Q14653, sequence (whole entry, unmodified, looked up): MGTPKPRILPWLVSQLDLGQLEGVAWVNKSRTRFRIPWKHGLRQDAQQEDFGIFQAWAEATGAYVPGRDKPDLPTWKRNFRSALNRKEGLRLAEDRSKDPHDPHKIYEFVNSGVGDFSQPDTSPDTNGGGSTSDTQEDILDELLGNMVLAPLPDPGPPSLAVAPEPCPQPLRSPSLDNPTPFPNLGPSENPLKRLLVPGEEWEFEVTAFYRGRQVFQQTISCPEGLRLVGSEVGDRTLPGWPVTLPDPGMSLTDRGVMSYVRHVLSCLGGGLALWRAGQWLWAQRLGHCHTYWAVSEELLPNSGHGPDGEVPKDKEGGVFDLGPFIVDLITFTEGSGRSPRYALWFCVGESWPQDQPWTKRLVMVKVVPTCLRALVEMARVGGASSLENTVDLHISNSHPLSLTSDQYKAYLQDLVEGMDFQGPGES
`TTAGGACTGCTGTTCCTTTAGTGCTAG` — result for “fitted relative affinity”: -0.0475 z-score.
`GACGAACTGGGGTATCGCGACGTGCTA`: “fitted relative affinity” -0.491 z-score.
`TTAGATCTCAGACTCGATTAGTGCTAG`: “fitted relative affinity” 0.163 z-score.
`AGACCATCCTGTATGGATGTGTGCTAG` — result for “fitted relative affinity”: 0.48 z-score.
Under “fitted relative affinity”, `TTAGAACAGAGACTGGATTAGTGCTAG` is recorded as -0.388 z-score.
`TCACTTTCCCAGCCTGGGACTGTGCTA` — result for “fitted relative affinity”: 3.91 z-score.
`GTGCCCGCTGCTTCCGGTGCGTGCTAG`: “fitted relative affinity” -0.339 z-score.
`GACGGACTGCTACTGCTCACGTGCTAG`: “fitted relative affinity” -0.757 z-score.
`CACGAACTGGGGTATCGAGACGTGCTA`: “fitted relative affinity” -0.336 z-score.
For `TCACATATAATTTTGTCATCGTGCTAG`, “fitted relative affinity” read 0.383 z-score.
For `TTAGGTATCGGGTTTCGGTTCGTGCTA`, “fitted relative affinity” read 4.71 z-score.
`GTCAGCGGTGGTGTTCGGTGGTGCTAG` — result for “fitted relative affinity”: -1.2 z-score.

Study 2 — target: CCNE2, cyclin fold, Cln2 fusion (human); method: yeast growth competition, sequencing; sample: yeast; notes: weak parent motif; reference: not given; direction: higher = stronger binding
Parent: SLBP docking peptide (human); ARYKRKLLINDFG; partner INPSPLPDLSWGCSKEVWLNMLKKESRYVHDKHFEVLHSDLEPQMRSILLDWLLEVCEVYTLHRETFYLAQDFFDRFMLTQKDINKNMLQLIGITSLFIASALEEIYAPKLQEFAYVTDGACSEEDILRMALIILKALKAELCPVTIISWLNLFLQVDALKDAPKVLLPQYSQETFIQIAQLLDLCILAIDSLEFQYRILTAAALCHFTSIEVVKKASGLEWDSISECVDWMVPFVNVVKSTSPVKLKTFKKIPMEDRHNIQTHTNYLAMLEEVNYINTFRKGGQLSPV
For `R5K`, “normalised enrichment score” read 0.599.
`R5N` — result for “normalised enrichment score”: 0.304.
`L7H` — result for “normalised enrichment score”: 0.337.
For `L8W`, “normalised enrichment score” read 1.14.
Under “normalised enrichment score”, `A1Q` is recorded as -0.348.
`A1V`: “normalised enrichment score” 1.59.
Under “normalised enrichment score”, `K4P` is recorded as 0.0486.
`K6E` — result for “normalised enrichment score”: 0.617.
`D11M`: “normalised enrichment score” 1.83.
`G13M`: “normalised enrichment score” 1.04.
`Y3M`: “normalised enrichment score” 1.44.
For `R5P`, “normalised enrichment score” read 0.446.
`Y3G`: “normalised enrichment score” 0.245.
`L8G` — result for “normalised enrichment score”: 0.777.
`N10I`: “normalised enrichment score” 1.01.
`K6W`: “normalised enrichment score” 1.45.
Under “normalised enrichment score”, `D11F` is recorded as 0.792.
`G13S`: “normalised enrichment score” -0.22.
Under “normalised enrichment score”, `F12Q` is recorded as 0.297.
`Y3I` — result for “normalised enrichment score”: 0.522.
`K6T`: “normalised enrichment score” 0.906.
`L7W` — result for “normalised enrichment score”: -0.412.
`Y3L`: “normalised enrichment score” 1.11.

Study 3 — method: RNA Bind-n-Seq; form: RNA; sample: in vitro; tested at: 365 nM; reference: no-protein control; direction: higher = stronger binding
Target: RNA binding protein fox-1 homolog 2, RRM domain, GST-SBP tag (RBFOX2, Homo sapiens, UniProt O43251-10, residues 100-194)
Notes: natural RNA segment, single round, ends assumed
Residues (chain): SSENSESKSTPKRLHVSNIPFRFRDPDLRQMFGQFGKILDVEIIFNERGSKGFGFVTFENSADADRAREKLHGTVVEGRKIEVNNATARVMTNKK
`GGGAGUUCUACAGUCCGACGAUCAUGAUUAAAAAAAAUUCAAGCUCAAUACCCACAUAAAUUAUAACGUUUCUCAGGAAGUAGUCCCUUAACCAAAACGUCUCUGAGAAGUGAUGCUUAGGUAAUCUCUGGGAUGGAAUUCUCGGGUGCCAA` — result for “RBNS enrichment (R)”: 0.484.
For `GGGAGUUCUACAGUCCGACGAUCAUUAAAGGAAAGAAAAAGCAUCUCAAAUGAGUGUAAGUUGUUCUUGAGAAAAAAAUGUAUCAGACUUUUAUGAUUUGAAUGAAAUGUAUUAUAGAAAAAAAUAAACACUUUGGAAUUCUCGGGUGCCAA`, “RBNS enrichment (R)” read 20.6.
For `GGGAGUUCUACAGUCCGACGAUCCGAUGCGACCAAGUGUCAGGCUCUAUGUGCCAUGCUUCAGAGUGCCCACCUUGAGAGAAGCCACCUUGUAGUCAGAGUGAGCAGACACAGUUACGUCAAACAUACAUCUCUGGAAUUCUCGGGUGCCAA`, “RBNS enrichment (R)” read 0.536.
`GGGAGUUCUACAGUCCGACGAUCUCCUGGAGGUGACUGGAGUAGCUGCUUUGCCAUUUCAUCACUGGGAUUCUGAACAGGCGCCAAGCUAACAGGUGGAGAAAUGAGCCAGAACUCCCUGUCUGAAAAGGAUGUGGAAUUCUCGGGUGCCAA`: “RBNS enrichment (R)” 0.572.
Under “RBNS enrichment (R)”, `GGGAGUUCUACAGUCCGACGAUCUCACAUGGUUUUGCCAUCCCUAAGUGAACAUCAUUCUGUCUUUGCUCAUGAGCUGGUCUAAUGCAGUCACAUUGGUGCUGAGCUGCCCAGGACCCUGGGACAUAGAUAAAUGGAAUUCUCGGGUGCCAA` is recorded as 0.242.
Under “RBNS enrichment (R)”, `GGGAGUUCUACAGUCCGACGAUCACACAUUUUAGGGAUAAGUAAUCAAAACCAUGAACUUUUAUUUGACUUCCCACCAAUGUCUAAACUAUUGUAAAAUAGUAUGAUUCUUUAGCCGUGUUUUGACUGUCUAGUGGAAUUCUCGGGUGCCAA` is recorded as 0.269.
`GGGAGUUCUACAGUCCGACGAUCGUAUAUAAAAGGCUACAGUUUAAUAUCUGUAUUUUUAUAAAAGUAUGAUGAAGGGUUUGGGGUGUUUUUAUUUGUAGCAGAGGUAAGAAUAUGUAUUCAUAUAAUCUGCCUGGAAUUCUCGGGUGCCAA` — result for “RBNS enrichment (R)”: 0.519.
Under “RBNS enrichment (R)”, `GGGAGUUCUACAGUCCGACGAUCGGCAUGAGCAGGGCACCUGGGGAGCCAGCUGCAUGGACCUGCUCUCCCUCGCUCGCUCCGGCUUCUCUGCUUUCCCAGGUCUCAGAAAAGAAACCCCUCCACAUCCCCGAUGGAAUUCUCGGGUGCCAA` is recorded as 2.17.
Under “RBNS enrichment (R)”, `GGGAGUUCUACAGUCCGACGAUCUCGCUGAGAUCUGUAACUUACAGGACACUCAAAGGGCAAUGGUUUUUUUUGGGGGGGGGGUUGUUUUUUUGGUUUUUUUUUUUCUGUAACAUAUUAGGGAAAAAAUGCAGUGGAAUUCUCGGGUGCCAA` is recorded as 1.24.
`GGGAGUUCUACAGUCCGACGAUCUGAGCCCAAAUUCAGGAUUGGUUCAGUGGCAGCAAUGAAGUUGCCAUUUAAAUUUGUUCAUAGCCUACAUCACCAAGGUCUCUGUGUCAAACCUGUGGCCACUCUAUAUGUGGAAUUCUCGGGUGCCAA` — result for “RBNS enrichment (R)”: 0.286.
`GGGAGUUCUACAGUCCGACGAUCUCCCUUUACCAAAAGGGUCAAUGGACCUUUCUUUGCACUGUGUGACUUAAUCAACUAUAAAAGCUUACAAUUAGUCUUCACAAUUAUGGGAUUGUUAUACUAACUGUGUGUGGAAUUCUCGGGUGCCAA` — result for “RBNS enrichment (R)”: 0.413.
`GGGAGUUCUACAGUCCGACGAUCUGAUGUAUCAUCAAUUUUAUUACUUUCUGUCUAUGUUUGCAAAAGUAGUAGAGUUUAAUUCACCAUAUGAACCUCAUUCUGAUGUUUUUGAUUUGAUAGUCUUGAUCUAAUGGAAUUCUCGGGUGCCAA`: “RBNS enrichment (R)” 0.381.

Study 4 — target: ATF5, bZIP domain (human); method: DHFR protein complementation; sample: yeast; reference: wild-type JUN-FOS pair; direction: higher = stronger binding
Notes: single substitutions, most at no-binding floor
Parent: JUN, bZIP domain (human); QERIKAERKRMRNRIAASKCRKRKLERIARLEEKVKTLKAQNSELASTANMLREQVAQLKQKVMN; partner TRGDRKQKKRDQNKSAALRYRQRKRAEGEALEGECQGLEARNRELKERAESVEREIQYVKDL
`A57N` has a binding fitness of -1.46 natural log.
The binding fitness of `V35G` is reported as -1.5 natural log.
The binding fitness of `L31F` is reported as -1.54 natural log.
For `S47V`, the binding fitness was -1.4 natural log.
The binding fitness of `K39T` is reported as -1.41 natural log.
`S47T` gave a binding fitness of -1.35 natural log.
`Q55M` has a binding fitness of -1.2 natural log.
`N42R` gave a binding fitness of -1.45 natural log.
With `I28L` the binding fitness was -1.18 natural log.
For `L38A`, the binding fitness was -1.53 natural log.

Study 5 — method: DHFR PCA, deep sequencing; sample: yeast; together with: (+)-ABA 58 µM; reference: wild-type fitted maximum; direction: higher = stronger binding
Target: ABI1, truncated, D143A, DHFR fusion (Arabidopsis thaliana)
Notes: methotrexate growth selection, single substitutions
Parent: PYL1, truncated, DHFR fusion (Arabidopsis thaliana); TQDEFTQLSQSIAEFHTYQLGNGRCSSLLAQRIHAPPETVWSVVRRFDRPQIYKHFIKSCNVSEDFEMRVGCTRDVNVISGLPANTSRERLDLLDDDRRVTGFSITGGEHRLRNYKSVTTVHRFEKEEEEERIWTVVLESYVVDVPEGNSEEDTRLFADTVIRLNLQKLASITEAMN
For `G108D`, “relative binding score” read 19%.
Under “relative binding score”, `R46A` is recorded as 75.6%.
Under “relative binding score”, `E147Y` is recorded as 78.1%.
Under “relative binding score”, `A170I` is recorded as 6.44%.
`D75H` — result for “relative binding score”: 86.1%.
Under “relative binding score”, `R32Q` is recorded as 88.1%.
`K116C`: “relative binding score” 59.4%.
`S80C` — result for “relative binding score”: 7.26%.
`K168M` — result for “relative binding score”: 72.6%.
For `I33F`, “relative binding score” read -5.86%.
`D92V`: “relative binding score” 41.2%.
Under “relative binding score”, `V70H` is recorded as 49.6%.
`D65Y`: “relative binding score” 67.9%.
For `I133P`, “relative binding score” read 99.5%.
`H16I` — result for “relative binding score”: -0.761%.

Excerpt of the above (study 4):
`A57N` has a binding fitness of -1.46 natural log.
The binding fitness of `V35G` is reported as -1.5 natural log.
The binding fitness of `L31F` is reported as -1.54 natural log.
For `S47V`, the binding fitness was -1.4 natural log.
The binding fitness of `K39T` is reported as -1.41 natural log.
`S47T` gave a binding fitness of -1.35 natural log.
`Q55M` has a binding fitness of -1.2 natural log.
`N42R` gave a binding fitness of -1.45 natural log.
With `I28L` the binding fitness was -1.18 natural log.
For `L38A`, the binding fitness was -1.53 natural log.
